Measurements collected from several papers.
PTGS2: Prostaglandin G/H synthase 2 (PTGS2, Homo sapiens, UniProt P35354)
Chain of UniProt P35354 (whole entry, looked up): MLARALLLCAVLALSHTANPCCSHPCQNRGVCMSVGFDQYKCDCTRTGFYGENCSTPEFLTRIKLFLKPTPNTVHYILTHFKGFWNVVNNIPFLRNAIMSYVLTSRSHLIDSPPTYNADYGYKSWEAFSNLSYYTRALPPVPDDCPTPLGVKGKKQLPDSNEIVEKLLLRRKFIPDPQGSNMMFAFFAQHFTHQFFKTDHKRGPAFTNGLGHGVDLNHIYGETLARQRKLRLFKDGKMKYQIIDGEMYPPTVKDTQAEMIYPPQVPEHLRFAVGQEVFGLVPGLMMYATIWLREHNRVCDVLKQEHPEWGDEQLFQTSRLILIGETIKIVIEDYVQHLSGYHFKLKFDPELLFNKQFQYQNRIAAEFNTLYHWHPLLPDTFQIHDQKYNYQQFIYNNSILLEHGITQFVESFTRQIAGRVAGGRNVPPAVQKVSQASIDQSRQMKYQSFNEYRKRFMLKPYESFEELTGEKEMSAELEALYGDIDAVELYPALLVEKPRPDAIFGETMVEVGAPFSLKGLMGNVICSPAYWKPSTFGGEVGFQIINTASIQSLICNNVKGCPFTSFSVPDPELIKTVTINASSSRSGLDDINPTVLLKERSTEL
PDE10A: cAMP and cAMP-inhibited cGMP 3',5'-cyclic phosphodiesterase 10A (PDE10A, Homo sapiens, UniProt Q9Y233)
Chain of UniProt Q9Y233 (whole entry, looked up): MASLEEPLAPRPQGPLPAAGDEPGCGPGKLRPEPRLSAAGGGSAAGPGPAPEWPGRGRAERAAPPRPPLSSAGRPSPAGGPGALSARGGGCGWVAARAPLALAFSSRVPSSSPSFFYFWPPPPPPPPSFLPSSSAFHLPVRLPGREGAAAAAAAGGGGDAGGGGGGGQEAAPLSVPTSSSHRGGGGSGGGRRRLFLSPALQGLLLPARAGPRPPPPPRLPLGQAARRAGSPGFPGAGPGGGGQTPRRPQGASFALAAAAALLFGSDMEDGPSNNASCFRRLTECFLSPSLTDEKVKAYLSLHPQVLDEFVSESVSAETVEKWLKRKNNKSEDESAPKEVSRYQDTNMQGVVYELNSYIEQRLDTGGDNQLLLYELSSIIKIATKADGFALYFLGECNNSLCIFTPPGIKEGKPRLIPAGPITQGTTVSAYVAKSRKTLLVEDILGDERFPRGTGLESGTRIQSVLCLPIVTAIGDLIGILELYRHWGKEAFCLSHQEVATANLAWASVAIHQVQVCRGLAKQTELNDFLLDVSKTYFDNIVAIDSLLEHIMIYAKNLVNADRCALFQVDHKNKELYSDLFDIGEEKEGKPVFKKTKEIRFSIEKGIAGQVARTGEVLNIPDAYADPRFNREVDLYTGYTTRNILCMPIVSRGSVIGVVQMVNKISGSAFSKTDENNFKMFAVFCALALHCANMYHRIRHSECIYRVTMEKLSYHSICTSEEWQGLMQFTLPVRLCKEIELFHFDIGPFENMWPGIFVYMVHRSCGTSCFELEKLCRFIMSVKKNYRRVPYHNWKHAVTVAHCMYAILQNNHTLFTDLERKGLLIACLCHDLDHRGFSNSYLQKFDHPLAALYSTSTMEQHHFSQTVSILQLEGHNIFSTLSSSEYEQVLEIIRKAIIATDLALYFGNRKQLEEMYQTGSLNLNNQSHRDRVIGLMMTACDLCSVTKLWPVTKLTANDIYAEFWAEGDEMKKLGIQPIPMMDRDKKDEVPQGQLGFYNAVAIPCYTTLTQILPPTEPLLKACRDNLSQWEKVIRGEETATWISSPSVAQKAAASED
USP51: Ubiquitin carboxyl-terminal hydrolase 51 (USP51, Homo sapiens, UniProt Q70EK9)
Chain of UniProt Q70EK9 (whole entry, looked up): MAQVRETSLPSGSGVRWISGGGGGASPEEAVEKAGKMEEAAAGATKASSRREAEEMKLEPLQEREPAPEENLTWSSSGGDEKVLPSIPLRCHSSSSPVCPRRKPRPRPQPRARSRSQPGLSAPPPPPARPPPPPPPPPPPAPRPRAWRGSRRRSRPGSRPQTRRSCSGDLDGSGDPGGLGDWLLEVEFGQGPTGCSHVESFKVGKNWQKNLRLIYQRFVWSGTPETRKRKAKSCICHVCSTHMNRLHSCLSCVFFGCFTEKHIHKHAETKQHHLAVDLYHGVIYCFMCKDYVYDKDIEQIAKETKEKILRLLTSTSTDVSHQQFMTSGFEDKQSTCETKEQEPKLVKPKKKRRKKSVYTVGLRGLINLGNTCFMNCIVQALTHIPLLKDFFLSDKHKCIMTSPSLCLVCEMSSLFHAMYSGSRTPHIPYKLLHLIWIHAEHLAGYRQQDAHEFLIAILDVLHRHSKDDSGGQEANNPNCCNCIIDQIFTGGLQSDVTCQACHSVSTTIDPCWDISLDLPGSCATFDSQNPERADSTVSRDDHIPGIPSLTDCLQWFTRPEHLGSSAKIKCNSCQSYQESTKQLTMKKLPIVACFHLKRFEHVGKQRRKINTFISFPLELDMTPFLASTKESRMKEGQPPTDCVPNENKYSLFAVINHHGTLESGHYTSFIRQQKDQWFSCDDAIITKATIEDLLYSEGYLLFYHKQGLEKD
HDAC1: Histone deacetylase 1 (HDAC1, Homo sapiens, UniProt Q13547)
Chain of UniProt Q13547 (whole entry, looked up): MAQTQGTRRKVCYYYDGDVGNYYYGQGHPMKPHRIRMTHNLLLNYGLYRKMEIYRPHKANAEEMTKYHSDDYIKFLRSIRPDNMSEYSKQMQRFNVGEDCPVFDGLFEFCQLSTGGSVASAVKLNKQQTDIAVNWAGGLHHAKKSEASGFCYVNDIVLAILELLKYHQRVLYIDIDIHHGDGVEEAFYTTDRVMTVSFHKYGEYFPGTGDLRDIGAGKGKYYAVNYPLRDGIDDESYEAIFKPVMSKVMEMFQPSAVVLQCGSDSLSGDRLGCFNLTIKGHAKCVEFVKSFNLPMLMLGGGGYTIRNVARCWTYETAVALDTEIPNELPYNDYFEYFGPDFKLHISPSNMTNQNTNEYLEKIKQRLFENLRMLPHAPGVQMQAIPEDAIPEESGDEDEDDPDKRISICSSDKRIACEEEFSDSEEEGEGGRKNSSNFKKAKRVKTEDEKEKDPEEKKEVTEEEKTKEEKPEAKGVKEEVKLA
SIRT6: NAD-dependent protein deacylase sirtuin-6 (SIRT6, Homo sapiens, UniProt Q8N6T7)
Chain of UniProt Q8N6T7 (whole entry, looked up): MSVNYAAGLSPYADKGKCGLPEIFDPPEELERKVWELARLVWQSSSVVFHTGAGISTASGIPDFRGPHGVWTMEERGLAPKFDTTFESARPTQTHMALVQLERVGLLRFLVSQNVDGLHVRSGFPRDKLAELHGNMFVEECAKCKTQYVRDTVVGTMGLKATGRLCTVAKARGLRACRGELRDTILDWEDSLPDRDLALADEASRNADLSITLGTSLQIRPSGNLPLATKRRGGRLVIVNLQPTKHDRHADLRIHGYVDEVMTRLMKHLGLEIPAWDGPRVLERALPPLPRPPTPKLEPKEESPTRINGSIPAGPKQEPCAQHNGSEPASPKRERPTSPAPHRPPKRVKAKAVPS
MPO: Myeloperoxidase (MPO, Homo sapiens, UniProt P05164)
Chain of UniProt P05164 (whole entry, looked up): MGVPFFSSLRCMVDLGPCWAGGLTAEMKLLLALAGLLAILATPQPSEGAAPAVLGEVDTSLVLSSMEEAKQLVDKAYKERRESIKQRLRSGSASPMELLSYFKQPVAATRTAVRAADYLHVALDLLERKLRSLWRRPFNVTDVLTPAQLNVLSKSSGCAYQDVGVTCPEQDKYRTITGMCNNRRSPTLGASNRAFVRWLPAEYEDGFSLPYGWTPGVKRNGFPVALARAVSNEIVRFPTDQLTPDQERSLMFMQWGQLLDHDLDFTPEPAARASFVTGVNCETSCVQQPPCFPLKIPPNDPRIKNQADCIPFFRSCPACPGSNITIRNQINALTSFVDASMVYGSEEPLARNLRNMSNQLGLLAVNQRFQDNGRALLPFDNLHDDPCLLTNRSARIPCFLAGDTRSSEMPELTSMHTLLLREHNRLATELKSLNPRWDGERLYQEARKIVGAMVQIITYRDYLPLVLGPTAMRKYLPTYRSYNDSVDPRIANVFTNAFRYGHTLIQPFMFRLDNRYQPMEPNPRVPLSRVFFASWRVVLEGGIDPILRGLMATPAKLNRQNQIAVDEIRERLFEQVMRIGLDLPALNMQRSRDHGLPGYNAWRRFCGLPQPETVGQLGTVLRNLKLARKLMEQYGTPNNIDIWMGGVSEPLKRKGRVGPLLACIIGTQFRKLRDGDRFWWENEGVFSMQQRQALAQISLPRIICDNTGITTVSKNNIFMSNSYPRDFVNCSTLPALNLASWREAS
SLC6A4: Sodium-dependent serotonin transporter (SLC6A4, Homo sapiens, UniProt P31645)
Chain of UniProt P31645 (whole entry, looked up): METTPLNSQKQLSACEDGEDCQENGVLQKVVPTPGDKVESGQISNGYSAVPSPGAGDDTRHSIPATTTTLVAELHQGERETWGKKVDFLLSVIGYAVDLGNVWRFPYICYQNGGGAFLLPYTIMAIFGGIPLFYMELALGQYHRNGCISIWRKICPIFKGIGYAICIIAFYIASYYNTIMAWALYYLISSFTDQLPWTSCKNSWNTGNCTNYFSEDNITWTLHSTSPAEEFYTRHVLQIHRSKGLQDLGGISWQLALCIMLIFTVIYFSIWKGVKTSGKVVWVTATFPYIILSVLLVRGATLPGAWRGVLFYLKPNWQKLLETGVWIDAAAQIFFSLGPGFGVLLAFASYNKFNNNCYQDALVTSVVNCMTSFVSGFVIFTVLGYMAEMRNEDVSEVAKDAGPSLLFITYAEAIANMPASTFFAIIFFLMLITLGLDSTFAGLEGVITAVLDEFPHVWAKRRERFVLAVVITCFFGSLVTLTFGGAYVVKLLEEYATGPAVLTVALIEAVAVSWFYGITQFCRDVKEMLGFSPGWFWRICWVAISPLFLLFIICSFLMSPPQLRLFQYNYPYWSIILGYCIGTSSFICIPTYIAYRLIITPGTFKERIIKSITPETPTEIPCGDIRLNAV
Chain of UniProt P49841 (whole entry, looked up): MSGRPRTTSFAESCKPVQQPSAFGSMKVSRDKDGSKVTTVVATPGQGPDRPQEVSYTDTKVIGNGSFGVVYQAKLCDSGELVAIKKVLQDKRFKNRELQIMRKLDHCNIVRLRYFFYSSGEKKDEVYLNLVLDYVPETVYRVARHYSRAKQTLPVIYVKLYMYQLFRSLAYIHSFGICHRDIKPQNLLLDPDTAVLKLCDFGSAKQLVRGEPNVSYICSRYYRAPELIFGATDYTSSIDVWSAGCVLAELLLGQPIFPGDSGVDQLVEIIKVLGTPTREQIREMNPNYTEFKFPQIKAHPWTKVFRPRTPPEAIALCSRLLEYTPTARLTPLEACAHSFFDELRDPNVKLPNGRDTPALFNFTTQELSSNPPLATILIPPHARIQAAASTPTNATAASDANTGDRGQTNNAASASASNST

| SMILES | tested on | assay | system | conditions | endpoint | value |
| --- | --- | --- | --- | --- | --- | --- |
| S=C(NN=Cc1ccc(N2CCCCC2)cc1)Nc1ccc(Cl)cc1 | Dihydrofolate reductase (DHFR, Homo sapiens, UniProt P00374) | enzyme activity, inhibitor |  | 500 µM | inhibition | 90.2% |
| COC(=O)c1ccc(O)cc1 | PTGS2 | enzyme activity, inhibitor |  | 0.12 µg/mL | inhibition | 0% |
| COc1ccc(-c2cccc(Cc3ncnc4cc(OC)c(OC)cc34)c2)cc1 | PDE10A | enzyme activity, inhibitor, FP |  | 0.1 µM | inhibition | 79% |
| OC[C@H]1O[C@@H](Oc2cc(O)cc(/C=C/c3ccc(O)cc3)c2)[C@H](O)[C@@H](O)[C@@H]1O | USP51 | enzyme activity, inhibitor |  | 5 µM | inhibition | 9% |
| Cc1cc([C@@H](C)Nc2ccccc2C(=O)O)c2nc(N3CCC(F)(F)CC3)c(C#N)c(=O)n2c1 | Tyrosine-protein kinase receptor UFO (AXL, Homo sapiens, UniProt P30530) | binding, competition with immobilised ligand |  | 10 µM | remaining binding | 83% |
| CNc1ncc2c(/C=C/C(=O)N3CCC(OC)CC3)nn(Cc3cccc(C(F)(F)F)c3)c2n1 | Homeodomain-interacting protein kinase 1 (HIPK1, Homo sapiens, UniProt Q86Z02) | enzyme activity, inhibitor, radiometric |  | 1 µM | remaining activity | 105% |
| N=C(N)NCCC[C@H](N)C(=O)O | USP51 | enzyme activity, inhibitor |  | 5 µM | inhibition | 0% |
| C=CC(=O)N1CCC(COCC(=O)N2CCN(c3nc(-c4cnc(N)nc4C(F)F)nc(N4CCOC[C@@H]4C)n3)CC2)CC1 | Mitogen-activated protein kinase 11 (MAPK11, Homo sapiens, UniProt Q15759) | binding, competition with immobilised ligand |  | 1 µM | remaining binding | 100% |
| COc1cc([C@@H]2c3cc4c(cc3[C@H](O)[C@H]3COC(=O)[C@@H]23)OCO4)cc(OC)c1OC | USP51 | enzyme activity, inhibitor |  | 5 µM | inhibition | 44% |
| Cc1cc(OS(=O)(=O)Oc2ccc(C(C)(C)C)cc2C)cc(C(=O)NO)c1 | Protein deacetylase HDAC6 (HDAC6, Homo sapiens, UniProt Q9UBN7) | enzyme activity, inhibitor, fluorescence |  | 10 µM | inhibition | 22% |
| O=C(O)c1ccc(O)cc1 | PTGS2 | enzyme activity, inhibitor |  | 0.24 µg/mL | inhibition | 8.14% |
| Nc1nc2[nH]c(C3CCCC3)c(Cc3cccc(Cl)c3)c(=O)n2n1 | C-C chemokine receptor type 5 (CCR5, Homo sapiens, UniProt P51681) | β-arrestin recruitment, antagonist |  | 1 µM | inhibition | 81% |
| CN1CC(Oc2cnc(C#N)cc2-c2ccn3nc(NC(=O)C4CC4)cc3c2)C1 | LIM domain kinase 1 (LIMK1, Homo sapiens, UniProt P53667) | enzyme activity, inhibitor |  | 1 µM | inhibition | 5% |
| CNc1cc(Oc2cc(C(=O)Nc3cc(N4CCN(C)CC4)cc(C(F)(F)F)c3)ccc2C)ncn1 | Dual specificity mitogen-activated protein kinase kinase 4 (MAP2K4, Homo sapiens, UniProt P45985) | target engagement in cells, inhibitor, chemoproteomics | Huh-7 | 1 µM | inhibition | -31.3% |
| COc1ccc(Cc2ncnc3ccccc23)cc1OC | PDE10A | enzyme activity, inhibitor, FP |  | 0.1 µM | inhibition | 21% |
| Cc1cc(C(C)(C)C)ccc1OS(=O)(=O)Oc1cccc(C(=O)NO)c1 | HDAC1 | enzyme activity, inhibitor, fluorescence |  | 10 µM | inhibition | 24% |
| CCc1nn(C)c2nc(-c3ccc(C(=O)O)cc3)nc(NCc3ccc(F)cc3)c12 | Dual specificity calcium/calmodulin-dependent 3',5'-cyclic nucleotide phosphodiesterase 1B (Homo sapiens, UniProt Q01064) | enzyme activity, inhibitor, radiometric |  | 10 µM | inhibition | 19.1% |
| COc1ccc(-c2cc(=O)c3c(O)cc(O[C@@H]4O[C@H](CO)[C@@H](O)[C@H](O)[C@H]4O)cc3o2)cc1O | PTGS2 | enzyme activity, inhibitor |  | 0.49 µg/mL | inhibition | 51.6% |
| Cc1ccc(CONC(=O)c2ccc(C(N)=O)cc2)cc1 | SIRT6 | enzyme activity, inhibitor, fluorescence |  | 100 µM | inhibition | 78.3% |
| Cc1ncsc1-c1ccc(CNC(=O)[C@@H]2C[C@@H](O)CN2C(=O)[C@@H](NC(=O)CCCCCCCCNC(=O)CN2CCN(C(=O)c3ccc(Nc4nc(C5CC5)cn5c(-c6cn[nH]c6)cnc45)c(F)c3)CC2)C(C)(C)C)cc1 | Serine/threonine-protein kinase 33 (STK33, Homo sapiens, UniProt Q9BYT3) | cell-free assay, competition with immobilised ligand |  | 1 µM | inhibition | > 65% |
| CCCCC(=O)Nc1ccc(-c2ccc3ncn(CCC)c(=O)c3c2)cn1 | Mast/stem cell growth factor receptor Kit (KIT, Homo sapiens, UniProt P10721, A829P) | binding, competition with immobilised ligand |  | 0.5 µM | remaining binding | 100% |

| SMILES | tested on | assay | system | conditions | endpoint | value |
| --- | --- | --- | --- | --- | --- | --- |
| CC(C)OCCn1c(=S)[nH]c(=O)c2[nH]ccc21 | MPO | enzyme activity, inhibitor, fluorescence |  | 30 µM | inhibition | 99.9% |
| NC(=O)c1ccc(C(=O)NOCc2ccc(Sc3cccc(C(F)(F)F)c3)c(C(F)(F)F)c2)cc1 | SIRT6 | enzyme activity, inhibitor, fluorescence |  | 100 µM | inhibition | 100% |
| COc1cc([C@H]2OC[C@H]3[C@@H]2CO[C@@H]3c2cc(OC)c(O)c(OC)c2)cc(OC)c1O | PTGS2 | enzyme activity, inhibitor |  | 0.24 µg/mL | inhibition | 13% |
| CC[C@H](C)[C@H](NC(=O)[C@H](CCC(N)=O)NC(=O)[C@H](CC(C)C)NC(=O)[C@H](CCSC)NC(=O)[C@H](CCCCN)NC(=O)[C@H](CO)NC(=O)[C@H](CO)NC(=O)[C@H](CCSC)NC(=O)[C@H](CC(C)C)NC(=O)[C@H](CC(N)=O)NC(=O)[C@@H](NC(=O)[C@@H](NC(=O)[C@H](CO)NC(=O)[C@H](CC(C)C)NC(=O)[C@H](CS)NC(=O)[C@H](CCCNC(=N)N)NC(=O)[C@H](CC(=O)O)NC(=O)[C@H](Cc1c[nH]c2ccccc12)NC(=O)[C@H](Cc1ccccc1)NC(=O)[C@H](C)NC(=O)[C@H](CCC(=O)O)NC(=O)[C@@H](N)CCCCN)C(C)C)[C@@H](C)CC)C(=O)N[C@@H](CC(N)=O)C(=O)N[C@@H](C)C(=O)O | Glycogen synthase kinase-3 beta (GSK3B, Homo sapiens, UniProt P49841) | enzyme activity, inhibitor, radiometric |  | 50 µM | inhibition | 0% |
| C#Cc1cc(-c2cc(Nc3nc(N[C@@H](C)c4ccc(F)cn4)ncc3Cl)n[nH]2)ccc1C=O | RAC-alpha serine/threonine-protein kinase (AKT1, Homo sapiens, UniProt P31749) | enzyme activity, inhibitor |  | 0.2 µM | inhibition | 1.24% |
| O[C@@H]1[C@H](O)[C@@H]2C[C@@H]2[C@H]1n1cnc2c(NCCC3CC3)nc(I)nc21 | SLC6A4 | ligand displacement, radioligand |  | 10 µM | inhibition | 5% |
| CC(C)=CCC[C@](C)(O[C@@H]1O[C@H](CO)[C@@H](O)[C@H](O)[C@H]1O)[C@H]1CC[C@]2(C)[C@@H]1[C@H](O)C[C@@H]1[C@@]3(C)CC[C@H](O)C(C)(C)[C@@H]3[C@@H](O[C@@H]3O[C@H](CO)[C@@H](O)[C@H](O)[C@H]3O[C@@H]3O[C@@H](C)[C@H](O)[C@@H](O)[C@H]3O)C[C@]12C | USP51 | enzyme activity, inhibitor |  | 5 µM | inhibition | 0% |
| Cc1c(OS(=O)(=O)Oc2cccc(C(C)C)c2)cccc1C(=O)NO | Histone deacetylase 8 (HDAC8, Homo sapiens, UniProt Q9BY41) | enzyme activity, inhibitor, fluorescence |  | 10 µM | inhibition | 14% |
| CCCN1C[C@H](CSC)C[C@@H]2c3cccc4[nH]cc(c34)C[C@H]21 | Sodium channel protein type 1 subunit alpha (SCN1A, Homo sapiens, UniProt P35498) | ion current, inhibitor, patch clamp |  | 3 µM | inhibition | 18.7% |
| CC[C@H](C)[C@H](NC(=O)[C@H](CCC(N)=O)NC(=O)[C@@H](NC(=O)[C@H](CCSC)NC(=O)[C@H](CCCCN)NC(=O)[C@H](CO)NC(=O)[C@@H](NC(=O)[C@H](CCSC)NC(=O)[C@H](CC(C)C)NC(=O)[C@H](CC(N)=O)NC(=O)[C@@H](NC(=O)[C@@H](NC(=O)[C@H](CO)NC(=O)[C@H](CC(C)C)NC(=O)[C@H](C)NC(=O)[C@H](CCCNC(=N)N)NC(=O)[C@H](CCC(=O)O)NC(=O)[C@H](Cc1ccc(O)cc1)NC(=O)[C@H](Cc1ccccc1)NC(=O)[C@H](C)NC(=O)[C@H](CC(N)=O)NC(=O)[C@@H](N)CCCCN)[C@@H](C)CC)[C@@H](C)CC)[C@@H](C)O)C(C)C)C(=O)N[C@@H](CC(N)=O)C(=O)N[C@H](C(=O)O)C(C)C | Cyclin-dependent kinase 5, with p25 (CDK5, Homo sapiens, UniProt Q00535) | enzyme activity, inhibitor, radiometric |  | 50 µM | inhibition | 22% |
| C1=C/COCc2cc(ccc2OCCN2CCCC2)Nc2nccc(n2)-c2cccc(c2)COC/1 | Hepatocyte growth factor receptor (MET, Homo sapiens, UniProt P08581, M1250T) | binding |  | 0.1 µM | remaining binding | 97% |
| Oc1ccc(/C=C/c2cc(O)cc(O)c2)cc1 | USP51 | enzyme activity, inhibitor |  | 5 µM | inhibition | 0% |
| NC/C(=C\F)COc1cccc(Cn2c(=S)[nH]c(=O)c3[nH]cnc32)c1 | MPO | enzyme activity, inhibitor, fluorescence |  | 0.1235 µM | inhibition | 96% |
| CNc1nc(C#Cc2ccc(Cl)s2)nc2c1ncn2[C@H]1[C@H](O)[C@H](O)[C@]2(CC#N)C[C@H]12 | SLC6A4 | ligand displacement, radioligand |  | 10 µM, cell membranes | inhibition | 4% |
| CC(/C=C/C=C(\C)C(=O)O[C@@H]1O[C@H](CO[C@@H]2O[C@H](CO)[C@@H](O)[C@H](O)[C@H]2O)[C@@H](O)[C@H](O)[C@H]1O)=C\C=C\C=C(C)\C=C\C=C(/C)C(=O)O[C@@H]1O[C@H](CO[C@@H]2O[C@H](CO)[C@@H](O)[C@H](O)[C@H]2O)[C@@H](O)[C@H](O)[C@H]1O | USP51 | enzyme activity, inhibitor |  | 5 µM | inhibition | 0% |
| CCN(O)N=Nc1ccc(S(=O)(=O)Nc2onc(C)c2C)cc1 |  | ABTS scavenging |  | 240 µg/mL | inhibition | 50.7% |
| O=C(NO)c1cc(F)cc(OS(=O)(=O)Oc2ccc(-n3ccnc3)cc2)c1 | HDAC1 | enzyme activity, inhibitor, fluorescence |  | 5 µM | inhibition | 39% |
| COc1cc(-c2cncc3c2CN(C)Cc2cc(N4CCNCC4)ccc2-3)cc(OC)c1OC | Leucine-rich repeat serine/threonine-protein kinase 2 (LRRK2, Homo sapiens, UniProt Q5S007) | enzyme activity, inhibitor |  | 1 µM | remaining activity | 103% |
| CC(C)(C)c1ccc(OS(=O)(=O)Oc2cc(F)cc(C(=O)NO)c2)cc1 | HDAC1 | enzyme activity, inhibitor, fluorescence |  | 5 µM | inhibition | 10% |
| Cc1noc(NS(=O)(=O)c2ccc(N=NN(C)O)cc2)c1C |  | ABTS scavenging |  | 180 µg/mL | inhibition | 82.6% |

A few entries again:
| SMILES | tested on | assay | system | conditions | endpoint | value |
| --- | --- | --- | --- | --- | --- | --- |
| Cc1cc(C(C)(C)C)ccc1OS(=O)(=O)Oc1cccc(C(=O)NO)c1 | HDAC1 | enzyme activity, inhibitor, fluorescence |  | 10 µM | inhibition | 24% |
| COc1ccc(Cc2ncnc3ccccc23)cc1OC | PDE10A | enzyme activity, inhibitor, FP |  | 0.1 µM | inhibition | 21% |
| CC(C)=CCC[C@](C)(O[C@@H]1O[C@H](CO)[C@@H](O)[C@H](O)[C@H]1O)[C@H]1CC[C@]2(C)[C@@H]1[C@H](O)C[C@@H]1[C@@]3(C)CC[C@H](O)C(C)(C)[C@@H]3[C@@H](O[C@@H]3O[C@H](CO)[C@@H](O)[C@H](O)[C@H]3O[C@@H]3O[C@@H](C)[C@H](O)[C@@H](O)[C@H]3O)C[C@]12C | USP51 | enzyme activity, inhibitor |  | 5 µM | inhibition | 0% |
